{"data": "Experimental data pooled from the literature", "note": "Parts stem from different laboratories: compare values within a part only.", "chain of UniProt P49760 (whole entry, looked up)": "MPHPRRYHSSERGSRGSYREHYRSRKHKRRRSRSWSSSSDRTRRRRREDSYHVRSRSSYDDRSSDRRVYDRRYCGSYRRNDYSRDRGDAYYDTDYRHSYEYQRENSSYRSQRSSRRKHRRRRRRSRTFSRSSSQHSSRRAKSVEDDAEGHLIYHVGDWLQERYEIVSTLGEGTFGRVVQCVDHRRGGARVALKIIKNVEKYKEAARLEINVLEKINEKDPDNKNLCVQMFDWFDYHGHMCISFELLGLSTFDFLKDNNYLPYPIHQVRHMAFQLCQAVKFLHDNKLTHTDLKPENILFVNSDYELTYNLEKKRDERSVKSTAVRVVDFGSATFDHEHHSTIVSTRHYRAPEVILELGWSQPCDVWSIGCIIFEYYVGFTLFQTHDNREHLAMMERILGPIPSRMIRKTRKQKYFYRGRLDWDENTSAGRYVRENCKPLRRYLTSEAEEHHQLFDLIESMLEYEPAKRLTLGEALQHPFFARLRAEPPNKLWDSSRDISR"}
{"data": "Set 1", "target": "Interferon regulatory factor 5, full length, phosphomimetic (IRF5, Homo sapiens, UniProt Q13568-2, residues 1-514, K96S/S451D/S453D/S456D/S462D)", "method": "protein-binding microarray", "form": "double-stranded DNA, one strand shown", "medium": "in vitro", "concentration": "250 nM", "setting": "60-bp whole probe", "added": "salmon DNA 0.4 mg/ml", "baseline": "random background probes", "direction": "higher = stronger binding", "all sequences stand within": "GCCTAGCAC … GTCTTGATTCGCTTGACGCTGCTG"}
{"Sequence": "TTAGGTCTCGGGCTGGGTTAGTGCTAG", "log fluorescence [z-score]": -0.312}
{"Sequence": "TTAGGACTGCTTCCCCTTTAGTGCTAG", "log fluorescence [z-score]": -0.162}
{"Sequence": "GCCCTTATCCAATCAGAATTGTGCTAG", "log fluorescence [z-score]": -0.0097}
{"Sequence": "TTAGGTTTCCTTTTCGTTTAGTGCTAG", "log fluorescence [z-score]": 3.21}
{"Sequence": "GACAATATCAGTATCGAGACGTGCTAG", "log fluorescence [z-score]": 3.64}
{"Sequence": "TCAGGTATCCTTATCCTTTAGTGCTAG", "log fluorescence [z-score]": 0.154}
{"Sequence": "TCATTTCTCTTTCATTGCACTGTGCTA", "log fluorescence [z-score]": 5.01}
{"Sequence": "CTGAATGTCCTCCTCTCTCTGTGCTAG", "log fluorescence [z-score]": -0.0179}
{"data": "Set 2", "target": "Centromere-binding protein 1, full length, His-tagged (CBF1, Saccharomyces cerevisiae, UniProt P17106, residues 1-351)", "method": "competition protein-binding microarray", "form": "double-stranded DNA, one strand shown", "medium": "in vitro", "concentration": "2 µM", "setting": "whole 60-bp probe, lowest competitor level", "added": "Pho4 competitor, 0.05 µM", "direction": "higher = stronger binding", "all sequences stand within": "… GTCTTGATTCGCTTGACGCTGCTG", "chain of UniProt P17106 (whole entry, looked up)": "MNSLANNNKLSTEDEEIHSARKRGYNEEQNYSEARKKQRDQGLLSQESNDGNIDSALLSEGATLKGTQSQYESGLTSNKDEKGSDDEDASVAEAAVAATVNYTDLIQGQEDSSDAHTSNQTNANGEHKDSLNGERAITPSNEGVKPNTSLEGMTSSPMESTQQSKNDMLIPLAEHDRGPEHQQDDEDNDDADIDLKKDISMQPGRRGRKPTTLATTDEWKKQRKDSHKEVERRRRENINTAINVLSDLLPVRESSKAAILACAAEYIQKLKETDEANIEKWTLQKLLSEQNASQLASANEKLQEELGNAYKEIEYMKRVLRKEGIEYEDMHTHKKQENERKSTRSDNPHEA"}
{"Sequence": "CCCAAGCGCTAGCATCACAAACGGCGAACTTCCCAT", "fluorescence intensity": "49.5 a.u."}
{"Sequence": "CTTCTGTAAATTTCCCACGTGTTTTGACGCGCCCCG", "fluorescence intensity": "847 a.u."}
{"Sequence": "CAACTTCTTTTATTGCACGTACCTTTTGGACTGGTT", "fluorescence intensity": "94.3 a.u."}
{"Sequence": "ATTTCTTTAGCCGGCCACGTGGCAACTGAAATGTCT", "fluorescence intensity": "1580 a.u."}
{"Sequence": "TTGCGCAGGGCGAGCCAGATGAACGCTCTAGTCGTC", "fluorescence intensity": "46.8 a.u."}
{"Sequence": "ATGGGCCACTCTTTTCACGTGAAGCGCTCCAGGAAA", "fluorescence intensity": "514 a.u."}
{"Sequence": "GCCGCCAGGGCCTGGCGCGTGGCCGCCGCTCCTCTT", "fluorescence intensity": "44.8 a.u."}
{"Sequence": "AAAGCGGTAATTTGCTCTGTGGGTGCAGATATCTAT", "fluorescence intensity": "84.5 a.u."}
{"data": "Set 3", "target": "PABPC1L2, full length, GST fusion (mouse, UniProt A0ABA7IW68)", "method": "RNAcompete", "form": "RNA", "medium": "in vitro", "concentration": "20 nM", "setting": "7-mer, probes averaged, single round", "baseline": "mean of 7-mers", "direction": "higher = stronger binding", "Target sequence (chain)": "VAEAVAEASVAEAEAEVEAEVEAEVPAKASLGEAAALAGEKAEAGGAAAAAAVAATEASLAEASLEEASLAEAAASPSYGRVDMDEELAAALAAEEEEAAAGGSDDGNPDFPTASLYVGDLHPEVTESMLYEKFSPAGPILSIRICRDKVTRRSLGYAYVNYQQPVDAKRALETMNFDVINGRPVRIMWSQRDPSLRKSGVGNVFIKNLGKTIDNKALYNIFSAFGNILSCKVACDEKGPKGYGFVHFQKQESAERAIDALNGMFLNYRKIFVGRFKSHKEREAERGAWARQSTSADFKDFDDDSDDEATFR"}
{"Sequence": "UCUGGGG", "7-mer Z-score": 0.0569}
{"Sequence": "AGCGGCC", "7-mer Z-score": 0.00254}
{"Sequence": "UCGGGCC", "7-mer Z-score": -0.108}
{"Sequence": "AUGGGGA", "7-mer Z-score": 0.437}
{"Sequence": "ACAUAUC", "7-mer Z-score": -0.0554}
{"Sequence": "CAAGAUA", "7-mer Z-score": 0.037}
{"Sequence": "AGGUGCC", "7-mer Z-score": 0.0569}
{"Sequence": "GUGUUGA", "7-mer Z-score": -0.0301}
{"data": "Further values, each from its own experiment"}
{"SMILES": "CC[n+]1c(/C=C/N(C)c2ccccc2)n(-c2ccccc2)c2ccc(-c3nc4ccccc4s3)cc21", "target": "Dual specificity protein kinase CLK2 (CLK2, Homo sapiens, UniProt P49760)", "assay": "enzyme activity, inhibitor", "setting": "0.5 µM", "scale": "baseline: control", "measurement": "remaining activity", "value": "98.4%"}
